Experimental data from different studies.
Parts stem from different laboratories: compare values within a part only. Changes are numbered by the printed parent chain.

Block 1
Target: Sal-like protein 4, full length isoform A (SALL4, Homo sapiens, UniProt Q9UJQ4, residues 1-1053)
Sequence of UniProt Q9UJQ4 (whole entry, looked up): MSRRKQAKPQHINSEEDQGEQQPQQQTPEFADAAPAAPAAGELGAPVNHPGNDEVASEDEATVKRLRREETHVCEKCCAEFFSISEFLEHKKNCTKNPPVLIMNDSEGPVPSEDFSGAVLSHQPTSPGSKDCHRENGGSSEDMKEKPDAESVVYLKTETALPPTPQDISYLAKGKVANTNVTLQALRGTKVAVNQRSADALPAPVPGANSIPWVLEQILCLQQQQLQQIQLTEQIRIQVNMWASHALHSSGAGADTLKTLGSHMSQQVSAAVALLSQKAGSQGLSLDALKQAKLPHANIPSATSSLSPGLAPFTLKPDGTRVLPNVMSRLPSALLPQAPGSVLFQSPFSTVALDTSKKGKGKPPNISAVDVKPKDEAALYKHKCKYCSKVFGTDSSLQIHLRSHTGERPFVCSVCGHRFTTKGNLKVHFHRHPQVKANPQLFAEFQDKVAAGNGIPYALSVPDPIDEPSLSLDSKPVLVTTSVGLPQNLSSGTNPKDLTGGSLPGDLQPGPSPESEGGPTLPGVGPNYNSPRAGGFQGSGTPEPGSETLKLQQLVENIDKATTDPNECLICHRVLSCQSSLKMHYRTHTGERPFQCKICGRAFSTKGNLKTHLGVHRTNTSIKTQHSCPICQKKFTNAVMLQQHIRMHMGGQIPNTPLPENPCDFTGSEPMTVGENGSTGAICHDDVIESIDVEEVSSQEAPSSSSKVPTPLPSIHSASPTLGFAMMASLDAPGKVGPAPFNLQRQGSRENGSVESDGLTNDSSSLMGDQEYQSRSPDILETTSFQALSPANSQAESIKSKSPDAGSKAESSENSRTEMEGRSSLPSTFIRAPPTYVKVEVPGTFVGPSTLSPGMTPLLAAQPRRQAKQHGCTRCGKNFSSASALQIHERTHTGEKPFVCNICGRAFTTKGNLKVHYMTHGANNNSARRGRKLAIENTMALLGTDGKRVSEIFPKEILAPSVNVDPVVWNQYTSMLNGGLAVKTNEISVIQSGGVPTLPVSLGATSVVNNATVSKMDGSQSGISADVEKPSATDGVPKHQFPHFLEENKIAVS
Technique: universal PBM
Form: double-stranded DNA, one strand shown
Sample: in vitro
Tested at: 600 nM
Notes: 8-mer, flanks averaged, mean of replicates
Reading: higher = stronger binding
Strand | E-score
AAAAGTGC | 0.0828
CGGCGGGC | -0.373
AGACTTAC | 0.0832
ACACCGTG | -0.149
ATTGCACG | 0.0353
CATAGAGC | -0.082
ACTACCCC | -0.115
AATCCTGA | 0.0997
AGGGTAGC | -0.136
GACTTTAC | 0.028
ATGACGAA | 0.203
CTAACAAA | 0.183
ATAGTTGG | 0.149
CTCCGAGA | -0.19
GAAAAACA | 0.157
ATCTGCTG | -0.0439
GATGTGAA | 0.227
ATTGTAAA | 0.321

Block 2
Target: Interferon regulatory factor 5, full length, phosphomimetic (IRF5, Homo sapiens, UniProt Q13568-2, residues 1-514, K96S/S451D/S453D/S456D/S462D)
Technique: protein-binding microarray
Form: double-stranded DNA, one strand shown
Sample: in vitro
Tested at: 250 nM
Notes: 60-bp whole probe
Added: salmon DNA 0.4 mg/ml
Relative to: random background probes
Reading: higher = stronger binding
All sequences stand within: GCCTAGCAC … GTCTTGATTCGCTTGACGCTGCTG
Strand | log fluorescence [z-score]
GACGATCTCGGTTTCGGGACGTGCTAG | 3.24
TCATTTTTCACCTGCACACTGTGCTAG | 1.52
TCACTTTTCATTTTCTTACTGTGCTAG | 2.54
GACGGCATCGACTTTCGGGACGTGCTA | 5.09
AGAAACTTGTGTTTGTCCCTGTGCTAG | 1.43
TTAGATATCAGTTTCGCTTAGTGCTAG | 8.34
TTAGGACTGGGGACAGGGTTAGTGCTA | -0.223
GACGGACTGCGTCTCCTGACGTGCTAG | -0.832
TCACTTTACTTTCTTTTACTGTGCTAG | 3.6
AACACAAACCCGCTGGAGTTGTGCTAG | -0.282
TTGGATTTCAGACTGGATTAGTGCTAG | 0.219
TCAGTGCTCCTTTTAATACTGTGCTAG | 0.191
TTAGCTATCAGTCTCGATTAGTGCTAG | 2.91
TCATTCTTTTTTTTCTTACTGTGCTAG | 1.44
TACGGTTTCGGTATCGGGACGTGCTAG | 9.66
GATGGTTTCGACTATCGGGACGTGCTA | 8.23
AGTCGTGAGCCGCACAGTGGGTGCTAG | -0.747
TTAGGTATCGACTATCGGTTTGTGCTA | 7.82
TTAGGACTGGGGTTTCAGTTAGTGCTA | 0.82
GACGGAATGGGTATCGGGACGTGCTAG | 0.608
GACGGACTGGGACTGGGGAAGTGCTAG | -0.852
GACGATATCAGACTGGATACGTGCTAG | 0.295
TTATGTTTCCTACTGCTTTAGTGCTAG | 1.07
TTAGATATCCTTCTCCTTTAGTGCTAG | 0.504
TTAGGTATCCTACTGCGTTAGTGCTAG | -0.104

Block 3
Target: ABI1, truncated, D143A, DHFR fusion (Arabidopsis thaliana)
Technique: DHFR PCA, deep sequencing
Sample: yeast
Notes: methotrexate growth selection, single substitutions
Added: (+)-ABA 200 µM
Relative to: wild-type fitted maximum
Reading: higher = stronger binding
Starting sequence: PYL1, truncated, DHFR fusion (Arabidopsis thaliana); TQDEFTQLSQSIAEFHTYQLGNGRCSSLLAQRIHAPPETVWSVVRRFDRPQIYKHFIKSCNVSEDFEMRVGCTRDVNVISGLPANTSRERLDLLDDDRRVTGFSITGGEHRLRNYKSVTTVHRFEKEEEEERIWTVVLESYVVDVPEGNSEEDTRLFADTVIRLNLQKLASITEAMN
Variant | relative binding score [%]
K126V | 107
D92W | 67.1
H34T | 86.2
W134V | 111
E89I | -12.3
K54F | 11.6
D92T | 83.4
G81V | 36
R88E | 102
E67N | 98.3
F15D | 64.7

Block 4
Target: CCNA2, cyclin fold, Cln2 fusion (human)
Technique: yeast growth competition, sequencing
Sample: yeast
Notes: strong parent motif
Relative to: not given
Reading: higher = stronger binding
Starting sequence: DBF4B docking peptide (human); LGYLYLLLTQSLW
Variant | normalised enrichment score
LGYLYLLATQSLW [L8A] | 1.8
LGYLYLLLTQALW [S11A] | 1.38
LGALYLLLTQSLW [Y3A] | 1.5
LGYLYLLLAQSLW [T9A] | 1.73
AGYLYLLLTQSLW [L1A] | 1.97
LGYLYLLLTQSLA [W13A] | 1.08

Block 5
Target: Histone acetyltransferase KAT6A, winged helix 2, GST fusion (KAT6A, Homo sapiens, UniProt Q92794, residues 85-181)
Technique: protein binding microarray
Form: double-stranded DNA, one strand shown
Sample: in vitro
Tested at: not given
Notes: 8-mer, flanks averaged, mean of 2 arrays, mostly near background
Relative to: not given
Reading: higher = stronger binding
Target sequence (chain): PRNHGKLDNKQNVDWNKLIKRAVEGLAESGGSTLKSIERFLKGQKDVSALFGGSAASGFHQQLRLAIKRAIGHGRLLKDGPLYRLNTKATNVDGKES
Strand | E-score
TCCGCAAA | 0.0801
CCGTGGTA | -0.0657
TGCCTCCA | -0.0901
ACCCTTAG | -0.0418
AAGACCTG | 0.0114
GACCGTGA | -0.121
ACTCAGCA | 0.0298
GGCTATAA | -0.0918
TACAGTGA | -0.103
TAGGACAA | -0.115
CAACGCTA | -0.103
AAACTCTG | 0.195
GGTCCAAA | -0.0164
ACTTGCCT | -0.126
CGCGGACA | 0.0835
AATAAGTG | -0.127
CTGGACCC | -0.0519
AGGAACAT | -0.0764
AAATTGAG | -0.0587
GTACTTGA | -0.109
CTTGGTGA | 0.0112
CCAGATGG | 0.158
AAGTCTCC | -0.271

Block 6
Target: RING finger protein unkempt homolog, zinc fingers 1-6, GST-SBP tag (UNK, Homo sapiens, UniProt Q9C0B0, residues 30-357)
Technique: RNA Bind-n-Seq
Form: RNA
Sample: in vitro
Tested at: not given
Notes: RNA with constant flanks, human and mouse sites, ends assumed
Relative to: input RNA pool
Reading: higher = stronger binding
All sequences stand within: GGGAGUUCUACAGUCCGACGAUC … CAACAGAGGAUUGAGCAUCA
Residues (chain): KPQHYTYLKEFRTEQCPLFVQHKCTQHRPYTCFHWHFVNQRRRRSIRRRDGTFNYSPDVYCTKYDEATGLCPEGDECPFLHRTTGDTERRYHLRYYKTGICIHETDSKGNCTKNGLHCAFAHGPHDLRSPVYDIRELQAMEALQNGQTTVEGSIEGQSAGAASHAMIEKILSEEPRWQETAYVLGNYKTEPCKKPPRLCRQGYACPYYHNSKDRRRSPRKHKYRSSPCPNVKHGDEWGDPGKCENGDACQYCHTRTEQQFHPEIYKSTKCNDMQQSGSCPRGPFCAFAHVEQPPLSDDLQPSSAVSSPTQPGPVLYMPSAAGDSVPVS
Strand | bound/input enrichment [ratio]
UCCCCCUUUGAUCAAAUGAAGACUGCCUCCAAUAUAGGUGGAUUUAAUGCAGCAAUUAAAAAUAGUCCACCUGCCAUGUCUCAGUAUAUCACUGUAGGGUCCAAUCCAUUUACUGGCUUC | 0.555
AUUUCCAUGGGACUUACAAGGAGCAUGCAGAUUGUCCCUUUAGACAAGCAGAUCACAAUCAUAGACAGUCCAUGCCUAAUUAUCUCACCUUGUAACUCCCCCACUGCACUUGCCCUUCGG | 0.269
GUUGUGGUCUGAUCAGUUAAUUUGUAUGUGGCAAUGUGUGCUUUCAUACAGUUACUGACUUAUGAAUGAUUGAUUUGACAGAGACCCAAGCUGCCCAUUUCACUUAUGGGUUUUAAAUAA | 0.0811
UUCAAAAUGAAAAUUGAAUACUGGCACUCCAUCUCUUAGAACAUAUGAAUUCUAGUGUUCAAUAUUCAUUAUUGGUUGUUUUUGUUGUGCUGAUUUUUGGUGAUCAGACCUCAGCUCCCU | 4.19
GAGUAUUAUUUACAGACCUGAAGGAAGGUGGGCUUAACCCCAAGGCUAAGUGUAAAUGUUUCUUGAAUUGAUUCUUUCUGUGGUACAAGUUAACACCUGUGUAUAUCAUAUCUGUAUAUA | 0.156
AUAAUAAAAGCCUCCAGCAAAGACGCCAUCAGGCUCUUGGAUUCUGUGCCUCCCACUGCCAUUAGCCAUUUCAAGCAGUCAGCUGAGAAGCUGAUUGAGGAGAAGGGAGCUGUAGAGGCC | 0.428
GUGUUGUGACCCAUUUAACAUACACAAGAAGCUAGCCAAAAAGAACCUGCACGUCAUUGACUUAGAUGAUGCCACUUUUCUGAGCGCCAAGUUUGGAAGACAGCUUGUACCUGGUUGGAA | 0.75
CAGAAUGGACUGGAAGUUUCACUGAGUAGCCUAAGUCUGGCUGUUCCUCCACCAAGAUUUCAUGACUCCAGCAGUCCGUUGCUAACCAGUGGGCCCUCAGUUGCUGAGCUCCCGUGGGCU | 0.269
CCUGAAAAGAAAGGUGGCUUGAAGGAGCUGUUUGGAAAGGGCCCUCAAAACGCCUUCUUCCUCGUCAAAUUCUGGGCGGACUUAAACUGCAAUAUCCAAGACGACGCCGGGGCCUUUUAU | 0.0871
CUUUUUAAGAAGAUAUGUGAUGGGAUCUUCUAUACCCCUCAAUAUUUAAAUCCUUCUGUGAUUAGCCUUUUGAAACAUAUGCUGCAGGUGGAUCCCAUGAAGAGGGCCACAAUCAAAGAU | 0.383
CAUUGGAGACUGAGCAAAAGGAAAUGUGAAACGAAUAACAUGAUGGAAUAUGUCAUCCUCAUAGAAUUUUUACCAAAGACACCGAUUUUUCGACCAGAUUAGCAUUUACUUUAUUUAUAG | 28.8

Mixed results
Substance | target | test | system | setting | scale | measurement | value
PhoQ, residues 284 288 289 292 302 303 SSCCRF | PhoP, residues 12 14 15 18 19 TPLRH (Escherichia coli, UniProt P23836) | Sort-seq, refers to: YFP reporter | E. coli | PhoQ-PhoP variant library, added: 10 µM Mg2+ | relative to: high Mg2+ state, higher = stronger signaling | fold induction | 9.51

Some of these lines once more (block 1):
Strand | E-score
ATTGCACG | 0.0353
CATAGAGC | -0.082
ACTACCCC | -0.115
AATCCTGA | 0.0997
AGGGTAGC | -0.136
GACTTTAC | 0.028
ATGACGAA | 0.203
CTAACAAA | 0.183
ATAGTTGG | 0.149
